Results from different studies.
Lines come from different studies, so protocols differ. ± marks the error that the study gave.
Cell line: PC-3

SMILES | assay | conditions | IC50
CNS(=O)(=O)Nc1nccc(Cc2c(C)c3ccc(Oc4ncccc4F)cc3oc2=O)c1F | cell viability | 7 days | > 1 µM
CNC[C@H](O)c1cccc(OCCOCCOCCOCC#Cc2cccc(Cn3c(-c4ccccc4)c(-c4ccccc4)c4c(=N)n([C@H]5CC[C@H](O)CC5)cnc43)c2)c1 | cell growth or viability, CCK-8 |  | 3.27 µM
CCc1c(C)c2ccc(OC(C)C)c(C)c2oc1=O | cell viability, MTT |  | 36.5 µg/mL
Cc1nc(Nc2ccc3c(c2)/C(=C/c2c[nH]c4ccccc24)C(=O)N3)c2ccccc2n1 | cell growth or viability, MTT |  | 19.1 µM
OC[C@H]1O[C@@H](Nc2cc3cccnc3c3ncccc23)[C@H](O)[C@@H](O)[C@@H]1O | cell growth or viability, MTT | 48 h, dark | 35.1 µM
O=C(O)C(Cc1c[nH]cn1)N1C(=O)c2ccc3c4ccc5c6c(ccc(c7ccc(c2c37)C1=O)c64)C(=O)N(C(Cc1c[nH]cn1)C(=O)O)C5=O (stereo not shown) | cell growth or viability, SRB | 72 h | > 100 µM
Cc1cc(C)cc(COc2cc3c(cc2OCc2cc(C)cc(C)c2)[C@@H]2C[C@](O)(Cc4cn(Cc5ccc(F)cc5)nn4)C[C@H](C)N2CC3)c1 (relative stereo) | cell growth or viability, MTT |  | 0.102 µM
[BH3-][P+]1(c2ccccc2)CCC(=O)CC1 | cell growth or viability, MTT | 72 h | > 100 µM
COc1ccccc1/C=C1\C(=O)Nc2ccc(Nc3nc(C)nc4ccccc34)cc21 | cell growth or viability, MTT |  | 1.52 µM
CNC[C@H](O)c1cccc(OCCOCCOCC#Cc2cccc(Cn3c(-c4ccccc4)c(-c4ccccc4)c4c(=N)n([C@H]5CC[C@H](O)CC5)cnc43)c2)c1 | cell growth or viability, CCK-8 |  | 2.98 µM
[BH3-][P+]1(c2ccccc2)CCCCC1 | cell viability, MTT | 72 h | 36.7 ± 4.08 µM
Cc1nc(N(C)c2ccc3c(c2)/C(=C/c2cn(C)c4ccccc24)C(=O)N3C)c2ccccc2n1 | cell growth or viability, MTT |  | 31.6 µM
CC(CCC(=O)[O][Pt]([NH2])([NH2])([OH])([Cl])[Cl])C1CCC2C3CCC4CC(O)CCC4(C)C3CCC12C (stereo not shown) | cell growth or viability, MTT |  | 7.5 µM
O=C1c2ccc3c4ccc5c6c(ccc(c7ccc(c2c37)C(=O)N1CCN1CCCCC1)c64)C(=O)N(CCN1CCCCC1)C5=O | cell growth or viability, SRB | 72 h | 91.5 µM
[BH3-][P@+]1(c2ccccc2)CC[C@@H](O)CC1 | cell growth or viability, MTT | 72 h | > 100 µM
Nc1cc2cccnc2c2ncccc12.[Cl-].[Cl-].[Ru+2].c1cnc2c(c1)ccc1cccnc12.c1cnc2c(c1)ccc1cccnc12 | cell viability, MTT | 1 h preincubation, then 48 h, with: blue light | 58.1 ± 1.07 µM
CC(C)c1ccc(N(C)c2ccc3c(c2)OCC[C@H]3CNc2cnccc2C(=O)O)cc1 | cell growth or viability, ATP luminescence | 7 days | 0.0145 µM
Cc1nc(Nc2ccc3c(c2)/C(=C/c2cn(C)c4ccccc24)C(=O)N3C)c2ccccc2n1 | cell growth or viability, MTT |  | 9.41 µM
C#CC[C@@]1(O)C[C@@H](C)N2CCc3cc(OCc4cc(C)cc(C)c4)c(OCc4cc(C)cc(C)c4)cc3[C@H]2C1 | cell growth or viability, MTT |  | 0.517 µM
C[n+]1c(/C=C/c2ccc(N(c3ccccc3)c3ccccc3)cc2)cc(/C=C2\Sc3ccccc3N2CCCN2CCCC2)c2ccccc21 | cell growth or viability, MTT | 36 h | 6.41 µM
COc1ccccc1/C=C1\C(=O)N(C)c2ccc(Nc3nc(C)nc4ccccc34)cc21 | cell growth or viability, MTT |  | 30.4 µM
O=[P@]1(c2ccccc2)CC[C@@H](O)CC1 | cell growth or viability, MTT | 72 h | > 100 µM

Excerpt of the above:
SMILES | assay | conditions | IC50
Cc1nc(Nc2ccc3c(c2)/C(=C/c2c[nH]c4ccccc24)C(=O)N3)c2ccccc2n1 | cell growth or viability, MTT |  | 19.1 µM
Nc1cc2cccnc2c2ncccc12.[Cl-].[Cl-].[Ru+2].c1cnc2c(c1)ccc1cccnc12.c1cnc2c(c1)ccc1cccnc12 | cell viability, MTT | 1 h preincubation, then 48 h, with: blue light | 58.1 ± 1.07 µM
Cc1cc(C)cc(COc2cc3c(cc2OCc2cc(C)cc(C)c2)[C@@H]2C[C@](O)(Cc4cn(Cc5ccc(F)cc5)nn4)C[C@H](C)N2CC3)c1 (relative stereo) | cell growth or viability, MTT |  | 0.102 µM
